# Results collected from several papers.
# A part holds a random share of what one study measured.

# Block 1 — method: universal PBM; form: double-stranded DNA, one strand shown; sample: in vitro; tested at: not given; direction: higher = stronger binding
# Target: Sal-like protein 4, full length isoform B (SALL4, Homo sapiens, UniProt Q9UJQ4-2, residues 1-616)
# Notes: 8-mer, flanks averaged, mean of replicates
# Construct (chain): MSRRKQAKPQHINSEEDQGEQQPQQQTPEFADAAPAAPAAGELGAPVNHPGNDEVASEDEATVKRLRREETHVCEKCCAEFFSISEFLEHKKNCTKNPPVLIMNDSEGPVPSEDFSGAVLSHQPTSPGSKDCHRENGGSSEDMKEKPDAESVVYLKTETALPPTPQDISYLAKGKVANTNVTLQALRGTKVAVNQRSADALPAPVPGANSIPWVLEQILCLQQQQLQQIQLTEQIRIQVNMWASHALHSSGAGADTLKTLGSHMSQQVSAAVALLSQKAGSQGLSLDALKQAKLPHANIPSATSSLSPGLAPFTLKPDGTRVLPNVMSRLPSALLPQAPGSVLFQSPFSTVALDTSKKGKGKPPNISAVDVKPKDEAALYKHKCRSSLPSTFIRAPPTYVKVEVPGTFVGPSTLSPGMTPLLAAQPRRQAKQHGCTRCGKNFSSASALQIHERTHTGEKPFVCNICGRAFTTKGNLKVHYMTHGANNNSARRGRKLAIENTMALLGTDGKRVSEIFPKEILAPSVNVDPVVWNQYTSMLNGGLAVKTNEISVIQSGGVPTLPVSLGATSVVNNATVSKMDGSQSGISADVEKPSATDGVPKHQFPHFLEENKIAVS
Oligonucleotide,E-score
CTGACGCC,-0.237
AATTGGGC,0.00717
ACCCTTTG,-0.116
AACGTCAA,0.23
CAACCGTA,-0.131
GGGCGGCA,-0.428
GCCTAGTA,-0.017
ACGTTTAT,0.296
CCGCTTCG,-0.304
GTTGAGAA,-0.0262
ATCATTCC,0.007
TATTCCGA,0.188
CCCCTACG,-0.256
CGGTACGC,-0.184
GCTTGAAC,0.0456
GACAACGC,-0.16
CCTCAAGG,-0.167
GCTAGTGA,-0.0637
CCGAGTGA,-0.121
CACCGAGA,-0.267
GAGACTTA,0.0422
GTCCAGAA,-0.0331
GCGCGCGC,-0.166
CAAGTAAC,0.109
GACAATAA,0.299

# Block 2 — method: protein binding microarray; form: double-stranded DNA, one strand shown; sample: in vitro; tested at: not given; baseline: not given; direction: higher = stronger binding
# Target: Histone acetyltransferase KAT6A, winged helix 1, GST fusion (KAT6A, Homo sapiens, UniProt Q92794, residues 1-85)
# Notes: 8-mer, flanks averaged, mean of 2 arrays, mostly near background
# Target sequence (chain): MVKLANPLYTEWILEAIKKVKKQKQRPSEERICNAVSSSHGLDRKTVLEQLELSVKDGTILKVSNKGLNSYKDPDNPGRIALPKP
Oligonucleotide,E-score
CGATAAAA,0.00817
AACGTACC,-0.0952
AACGCGCA,0.299
CTGTAGCC,-0.15
CACGCCAA,-0.115
CCCTGTAG,-0.115
CTATAGTC,-0.0238
CCATGTAC,-0.107
ATCAAAAA,-0.0107
CGCCCGGA,0.279
TGACTCCA,-0.341
GGCCCACC,0.052
ACGATATA,-0.174
AAACACCT,-0.0791
AAGCGGTG,0.0883
GCACGTCA,-0.041
ACTATTAC,0.0751
CGGCTCAG,0.263
ACACCCGC,0.27
ACTGCTGG,-0.12
CATTGACG,-0.0026
GCAGTGGA,-0.103

# Block 3 — method: RNA Bind-n-Seq; form: RNA; sample: in vitro; tested at: 365 nM; baseline: no-protein control; direction: higher = stronger binding
# Target: RNA binding protein fox-1 homolog 2, RRM domain, GST-SBP tag (RBFOX2, Homo sapiens, UniProt O43251-10, residues 100-194)
# Notes: natural RNA segment, single round, ends assumed
# Construct (chain): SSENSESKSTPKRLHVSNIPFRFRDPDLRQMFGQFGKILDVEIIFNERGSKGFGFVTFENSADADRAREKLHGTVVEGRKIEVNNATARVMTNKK
Oligonucleotide,RBNS enrichment (R)
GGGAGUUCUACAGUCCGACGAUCUUUGGUUAUUUUCAUAAUCUGGUAUUGCAUUUUGCCUUCCCUGUUCAUACCUCAAAUUGAUUCAUACCUCAGUUUAAUUCAGAGAGGUCAGUUAAGUGACGGAUUCUGUUUGGAAUUCUCGGGUGCCAA,1.52
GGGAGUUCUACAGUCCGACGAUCAAAAUCAUGUUCUCUAUUUAUGACUCUUCCUAGGGCAAUGUGUCUGGACAGAUUGUAAGAGUAAGUCAUUUUCCUAAAGAAUUAGAUAUUUGUCACUGCCUAUACCUGCAUGGAAUUCUCGGGUGCCAA,1.36
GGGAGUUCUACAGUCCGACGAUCAGUCUGUAGGGAUACAUUUUUCUGUGGUUGGUUUUCUUCAGCUAAGAGUCGCUGUCAGCAGGAGCUUUCUGACCUGUUAAUUCAGGUUCUUUUUGGUUUAGGUUGGGUUUUGGAAUUCUCGGGUGCCAA,0.605
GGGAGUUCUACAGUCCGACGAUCGUCUUCACAGAAAAUACAUGUUCCUUCCCCGUGGUUCCUGUACUCAUUUUAACGUGUUGUUUAUUCUGUUUCACGACCUACAUACAGUUCUUGUGCAUCAGGAUAUAUCAUGGAAUUCUCGGGUGCCAA,0.429
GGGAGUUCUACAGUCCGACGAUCACACAAACCUAAGCUAACAAAAUGACUGCAUUCGUCUCUUUUUUAAAGGUAGAGAUUAAACUGUAUAGACAGCAUAGGGAUGAAAGGAACCAAGCGUUUCUGUGGGAUUGUGGAAUUCUCGGGUGCCAA,0.298
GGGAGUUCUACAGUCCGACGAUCGAGCCGGCAGCAGUGAGGCAUUCAUUGUCUGUGUUGCGGUGUAUUCCCAGCUUCAGUGCUCUUUUCCUUUUUGCCUGAAAUGUUUAUGCUUCUCUGCAGCCAGUCCUCUAUGGAAUUCUCGGGUGCCAA,0.543
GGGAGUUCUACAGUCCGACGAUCUUCCCCAAGAAGGUAGUGUACUAGGAUCCUAUUAGUCUGCUUUUCAUAUACUGUACAUCAAGUAUAGGAAAUGUGCACUGAGUAUACUAAAAGUAUAUGCAGGAUUAAUUUGGAAUUCUCGGGUGCCAA,0.185
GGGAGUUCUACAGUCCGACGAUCGUGCUAUUGUUUUAAAAAAAUAAUUAAAAAACAGUUGGCGUUAAUAAAAAUGUCAAUGUGAAACUGAUGUCCUGAUUCACUUUAUUCUCUUUCUUUGAUAAGAAACUAAAUGGAAUUCUCGGGUGCCAA,0.543
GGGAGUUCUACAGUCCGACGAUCAGACCUAUUUUUGUUGUCUUGUUCCCUAAAGGAGUUUUCUAACACUUGAAUAAAUUGGGAUACUAAACAAGCCACCAGGGGGCGUGUGAGGUCUGAGUCCUGAGCUGCUGUGGAAUUCUCGGGUGCCAA,1.61
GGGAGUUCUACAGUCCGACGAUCUUCCCUAAUCCCCUUUUGAUUUGUUUCCAAAAUAAAAGAGAAUCUUUUCUUCCCUACCCCAGGCUUCCCCAGGCAUUCUCUUGGGAACACAGAAGCAUCAAGGGAGCCCAUGGAAUUCUCGGGUGCCAA,0.581
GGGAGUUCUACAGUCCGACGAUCCAAUCCUGACUCUGGCUAUUCGCUUCCCACCCUCUCCUUUCACUGUGAUGUGUUCCAGGUUUAGCCUAGGGUCCAUUCUUGUCACUGUUUCUUACUGUGUAGAGUACCUUUGGAAUUCUCGGGUGCCAA,0.321
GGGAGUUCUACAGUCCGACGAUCUCCAGCUCCCUCAUCUCUUCAAAAUUGAGUUCUUGGGAGAACAAAAGGUAUGUAUCCUGCAGUAGUUAAGCCCUUAAAUAAUUGGGAGUUGGGAAAUCGGAAUCAAAGUAUGGAAUUCUCGGGUGCCAA,0.53

# Block 4 — method: protein-binding microarray; form: double-stranded DNA, one strand shown; sample: in vitro; tested at: not given; direction: higher = stronger binding
# Target: Protein max, full length (MAX, Homo sapiens, UniProt P61244-2, residues 1-151)
# Notes: k-mer, scored over probes, only values ≥0.25
Oligonucleotide,E-score
ATTGCATG,0.326
CTAGTCAC,0.28
CACACCTC,0.252
AGCTCGTG,0.343
ATCGCCAC,0.258
CATGCCTC,0.377
ATGTGGGA,0.323
ACATGACG,0.288
CGCGAGCA,0.291
ATTGCGTG,0.259
CGACATGA,0.27
ATGCGGTA,0.306
AAGCATGG,0.445

# Block 5 — method: RNAcompete; form: RNA; sample: in vitro; tested at: 20 nM; notes: 7-mer, probes averaged, single round; baseline: mean of 7-mers; direction: higher = stronger binding
# Target: PABPC1L2, full length, GST fusion (mouse, UniProt A0ABA7IW68)
# Residues (chain): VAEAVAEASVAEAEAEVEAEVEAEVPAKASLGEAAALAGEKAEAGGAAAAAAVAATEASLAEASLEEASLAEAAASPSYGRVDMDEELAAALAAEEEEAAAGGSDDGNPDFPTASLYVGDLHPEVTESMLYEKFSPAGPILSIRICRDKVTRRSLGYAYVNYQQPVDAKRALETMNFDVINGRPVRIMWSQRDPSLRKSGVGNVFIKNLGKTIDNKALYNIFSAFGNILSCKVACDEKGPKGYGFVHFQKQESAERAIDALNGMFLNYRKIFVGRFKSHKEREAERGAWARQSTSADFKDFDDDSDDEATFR
Oligonucleotide,7-mer Z-score
ACCUUAC,-0.229
GGCCGGC,-0.271
CAGUUAG,-0.148
AUAUUAG,0.0623
ACGCUCG,-0.318
GGCUUUC,-0.237
UAUACCU,-0.311
UAGAGCA,0.137
UUAGCUA,-0.146
GAAUAAC,-0.0228
ACGUGCU,-0.0355
GUCCCAA,-0.079
CCAUCAG,-0.168
GCCGGUA,-0.0772
GAUAUGG,0.00436
UGUUCAC,-0.487
AGCGCAU,-0.141
CCUCACU,-0.0681
UAGAUUC,-0.258
GAUUUAA,0.233
CGAUUCG,-0.385
CUUAUAC,-0.32
AAAUAAG,2.88
AACUACG,0.0551
CUUUCGG,-0.344

# Repeated from above (block 1):
Oligonucleotide,E-score
CAAGTAAC,0.109
CAACCGTA,-0.131
ACCCTTTG,-0.116
ATCATTCC,0.007
GCTAGTGA,-0.0637
